Assay results gathered from unrelated publications.
Protocols differ between the studies behind these lines. ± marks the error that the study gave.
Histidine kinase AgrC: Histidine kinase AgrC (Listeria monocytogenes, UniProt A8E0G3)
sdiA: Regulatory protein SdiA (sdiA, Escherichia coli, UniProt P07026)
Sequence of UniProt P07026 (whole entry, looked up): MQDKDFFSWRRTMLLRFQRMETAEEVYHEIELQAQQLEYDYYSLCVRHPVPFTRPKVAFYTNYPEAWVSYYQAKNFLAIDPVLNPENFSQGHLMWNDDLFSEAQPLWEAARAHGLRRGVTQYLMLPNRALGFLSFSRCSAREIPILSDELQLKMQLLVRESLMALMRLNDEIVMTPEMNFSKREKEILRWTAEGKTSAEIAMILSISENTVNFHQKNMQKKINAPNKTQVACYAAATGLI
lasR: Transcriptional activator protein LasR (lasR, Pseudomonas aeruginosa, UniProt P25084)
Sequence of UniProt P25084 (whole entry, looked up): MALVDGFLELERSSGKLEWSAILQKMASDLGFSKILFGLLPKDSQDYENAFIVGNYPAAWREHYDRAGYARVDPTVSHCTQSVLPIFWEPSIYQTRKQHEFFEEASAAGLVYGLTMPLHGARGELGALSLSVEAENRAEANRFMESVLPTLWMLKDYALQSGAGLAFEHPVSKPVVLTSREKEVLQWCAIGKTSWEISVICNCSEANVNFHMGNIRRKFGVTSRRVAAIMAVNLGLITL
Sequence of UniProt Q8BZ39 (whole entry, looked up): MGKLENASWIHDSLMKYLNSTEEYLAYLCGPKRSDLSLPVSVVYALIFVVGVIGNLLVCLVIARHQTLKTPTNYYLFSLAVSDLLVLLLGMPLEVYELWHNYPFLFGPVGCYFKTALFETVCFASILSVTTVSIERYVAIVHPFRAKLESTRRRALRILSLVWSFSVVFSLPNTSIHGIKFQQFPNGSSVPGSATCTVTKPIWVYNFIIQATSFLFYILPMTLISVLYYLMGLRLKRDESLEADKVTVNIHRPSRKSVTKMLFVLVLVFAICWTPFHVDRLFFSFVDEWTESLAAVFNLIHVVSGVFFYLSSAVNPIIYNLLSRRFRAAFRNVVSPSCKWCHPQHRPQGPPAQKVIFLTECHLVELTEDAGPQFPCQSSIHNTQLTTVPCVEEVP
Sequence of UniProt P43219 (whole entry, looked up): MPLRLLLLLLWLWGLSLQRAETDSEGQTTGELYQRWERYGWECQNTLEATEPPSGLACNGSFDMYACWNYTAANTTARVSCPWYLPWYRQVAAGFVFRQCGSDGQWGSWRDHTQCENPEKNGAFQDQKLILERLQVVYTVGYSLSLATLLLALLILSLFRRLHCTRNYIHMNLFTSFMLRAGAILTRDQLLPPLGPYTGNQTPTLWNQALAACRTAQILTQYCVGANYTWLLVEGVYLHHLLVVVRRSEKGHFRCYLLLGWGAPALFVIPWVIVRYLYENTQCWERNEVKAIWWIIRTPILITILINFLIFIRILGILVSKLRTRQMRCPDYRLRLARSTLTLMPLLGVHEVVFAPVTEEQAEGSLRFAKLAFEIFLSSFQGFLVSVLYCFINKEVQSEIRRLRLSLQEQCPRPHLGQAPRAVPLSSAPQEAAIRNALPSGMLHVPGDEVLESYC
Sequence of UniProt P37288 (whole entry, looked up): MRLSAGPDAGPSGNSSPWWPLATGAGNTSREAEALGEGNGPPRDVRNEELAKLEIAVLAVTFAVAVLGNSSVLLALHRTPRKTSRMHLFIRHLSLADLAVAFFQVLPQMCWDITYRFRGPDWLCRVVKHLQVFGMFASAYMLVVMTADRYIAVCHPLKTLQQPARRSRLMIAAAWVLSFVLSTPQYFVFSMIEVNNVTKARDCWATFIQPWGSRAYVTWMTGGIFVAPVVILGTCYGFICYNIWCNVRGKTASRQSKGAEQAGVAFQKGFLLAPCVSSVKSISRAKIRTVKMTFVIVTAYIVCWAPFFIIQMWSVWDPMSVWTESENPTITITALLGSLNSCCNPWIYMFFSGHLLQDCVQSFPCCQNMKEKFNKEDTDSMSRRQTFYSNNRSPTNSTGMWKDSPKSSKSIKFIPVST
Sequence of UniProt P51451 (whole entry, looked up): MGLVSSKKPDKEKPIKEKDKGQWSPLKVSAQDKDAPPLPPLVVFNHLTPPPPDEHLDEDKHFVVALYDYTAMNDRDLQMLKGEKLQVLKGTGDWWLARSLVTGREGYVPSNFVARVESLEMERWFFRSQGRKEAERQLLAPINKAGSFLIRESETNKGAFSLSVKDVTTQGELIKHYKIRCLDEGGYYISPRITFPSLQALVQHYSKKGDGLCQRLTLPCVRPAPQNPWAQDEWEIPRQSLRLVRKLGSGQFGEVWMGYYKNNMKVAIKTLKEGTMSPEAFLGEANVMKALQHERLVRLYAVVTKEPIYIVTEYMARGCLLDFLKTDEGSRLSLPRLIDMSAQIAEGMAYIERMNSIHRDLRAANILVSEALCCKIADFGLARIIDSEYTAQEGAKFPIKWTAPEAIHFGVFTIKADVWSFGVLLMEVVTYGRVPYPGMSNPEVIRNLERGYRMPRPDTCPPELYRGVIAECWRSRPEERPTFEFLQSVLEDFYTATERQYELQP
Sequence of UniProt P41143 (whole entry, unmodified, looked up): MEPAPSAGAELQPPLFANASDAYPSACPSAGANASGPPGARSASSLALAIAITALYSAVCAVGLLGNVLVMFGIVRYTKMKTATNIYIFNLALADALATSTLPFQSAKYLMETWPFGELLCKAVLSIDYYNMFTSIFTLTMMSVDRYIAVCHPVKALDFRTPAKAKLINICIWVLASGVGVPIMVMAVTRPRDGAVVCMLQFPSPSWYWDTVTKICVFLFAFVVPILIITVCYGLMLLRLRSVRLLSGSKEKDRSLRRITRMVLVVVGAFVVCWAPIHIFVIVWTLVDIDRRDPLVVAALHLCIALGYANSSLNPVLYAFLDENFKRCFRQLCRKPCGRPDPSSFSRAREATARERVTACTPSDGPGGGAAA

CC[C@H](C)[C@@H]1NC(=O)[C@H](Cc2ccc(O)cc2)NC(=O)[C@@H](N)CSSC[C@@H](C(=O)N2CCC[C@H]2C(=O)N[C@@H](CC(C)C)C(=O)NCC(N)=O)NC(=O)[C@H](CC(N)=O)NC(=O)[C@H](CCC(N)=O)NC(=O)[C@H]([C@@H](C)CC)NC(=O)[C@H](Cc2ccc(O)cc2)NC(=O)[C@@H](N)CSSC[C@@H](C(=O)N2CCC[C@H]2C(=O)N[C@@H](CC(C)C)C(=O)NCC(N)=O)NC(=O)[C@H](CC(N)=O)NC(=O)[C@H](CCC(N)=O)NC1=O — EC50 (Vasopressin V1a receptor (AVPR1A, Homo sapiens, UniProt P37288); calcium signal, agonist, fluorescence): > 10000 nM
CC(C)(C)C(=O)OCOP(=O)(OCOC(=O)C(C)(C)C)C1CCCN(O)C1=O (stereo not shown) — log LC50 (KM12): > -4 log M
CSCC[C@@H]1NC(=O)[C@H](Cc2ccccc2)NC(=O)[C@@H](NC(=O)[C@@H](C)N)CSC(=O)[C@H](C(C)C)NC(=O)[C@H](Cc2ccccc2)NC1=O — EC50 (Histidine kinase AgrC): 96.9 nM
CCCCCCCCCCCCCCCCCC(=O)NC[C@H]1CC[C@H](C(=O)N[C@@H](CCC(=O)NCCCOCCOCCOCCCNC(=O)COCC(=O)N[C@@H](Cc2ccc(O)cc2)C(=O)NC(C)(Cc2ccccc2)C(=O)N[C@@H](CC(C)C)C(=O)N[C@@H](CCCC)C(=O)N[C@@H](CCCNC(=N)N)C(=O)N2CCC[C@H]2C(=O)N[C@@H](CCCNC(=N)NC)C(=O)N[C@@H](CC(N)=O)C(N)=O)C(=O)O)CC1 (stereo partly shown) — EC50 (Neuromedin-U receptor 2 (Mus musculus, UniProt Q8BZ39); Gq signalling, agonist, IP-1 accumulation; average of runs): 0.93 nM
O=C(Cc1cccc([N+](=O)[O-])c1)N[C@H]1CCSC1=O — EC50 (sdiA): 2.11 nM
COc1ccccc1-c1n[nH]c2nc(NC3CCN(C(=O)Cc4ccc(F)cc4F)CC3)ncc12 — relative abundance (bead binding, competition bead pull-down, refers to: LINJ.32.3110; Leishmania donovani extract; 10 µM; baseline: vehicle): 0.82
O=C(Cc1ccccc1F)N[C@H]1CCOC1=O — EC50 (sdiA): 4.18 nM
CSCC[C@H]1NC(=O)[C@H](Cc2ccccc2)NC(=O)[C@@H](NC(=O)[C@@H](N)CCCCN)CSC(=O)[C@H](C(C)C)NC(=O)[C@H](Cc2ccccc2)NC1=O — EC50 (Histidine kinase AgrC): 4.18 nM
O=C(CCCCCCCCCN=C=S)CC(=O)N[C@H]1CCOC1=O — EC50 (lasR; reporter gene, agonist; ΔmexAB-oprM pump mutant): 1300 nM
Cc1cc(O)cc(C)c1C[C@H](N)C(=O)N[C@H](CCCNC(=N)N)C(=O)N[C@@H](Cc1ccccc1)C(=O)N(C)CC(=O)N(C)Cc1cc(C(F)(F)F)cc(C(F)(F)F)c1 — EC50 (Delta-type opioid receptor (OPRD1, Homo sapiens, UniProt P41143, H278A); agonist): 23 nM
CC[C@H](C)[C@H](NC(=O)[C@H](CO)NC(=O)[C@H](Cc1ccc(O)cc1)NC(=O)[C@H](Cc1ccc(O)cc1)NC(=O)[C@H](CC(N)=O)NC(=O)CNC(=O)[C@H](CO)NC(=O)[C@H](Cc1ccc(O)cc1)NC(=O)[C@H](CO)NC(=O)[C@H](CO)NC(=O)[C@H](CC(N)=O)NC(=O)COCCOCCNC(=O)CN1CCN(CC(=O)O)CCN(CC(=O)O)CCN(CC(=O)O)CC1)C(=O)N[C@@H](CC(C)C)C(N)=O [copper-64 labelled] — tumour uptake (dynamic PET; mouse, tamoxifen-induced PDAC, tumor; intravenous, 0.1 µg/mouse, 5.5 min): 13.5 %ID/mL
CSCC[C@@H]1NC(=O)[C@H](Cc2ccccc2)NC(=O)[C@@H](NC(=O)[C@H](C)N)CNC(=O)[C@H](C(C)C)NC(=O)[C@H](Cc2ccccc2)NC1=O — EC50 (Histidine kinase AgrC): 342 nM
CS(C)(=O)=Nc1ccc(-c2ccc(-c3nc4cc(O[C@@H]5CO[C@H]6[C@@H]5OC[C@H]6O)[nH]c4cc3F)cc2)cc1 — inhibition (Tyrosine-protein kinase Blk (BLK, Homo sapiens, UniProt P51451); enzyme activity, inhibitor; 10 µM): 9%
O=C1NC2(CC2)COc2ncc(F)cc2[C@H]2COCCN2c2ccn3ncc1c3n2 — serum total bilirubin (Sprague-Dawley rat, male, serum; oral, 2.5 mg/kg/day, end of treatment, 4-week subacute toxicity): 1.1 ± 0.3 µmol/L
CCCCCC(=O)CC(=O)N[C@H]1CCOC1=O — EC50 (lasR; reporter gene, agonist; ΔmexAB-oprM pump mutant): 26000 nM
COc1ccc(CC(=O)N[C@H]2CCSC2=O)cc1 — EC50 (sdiA): 5.7 nM
CC[C@H](C)[C@H](NC(=O)[C@H](Cc1ccccc1)NC(=O)[C@H](CCC(=O)O)NC(=O)[C@H](CCCNC(=N)N)NC(=O)[C@@H](NC(=O)[C@H](C)NC(=O)[C@H](CCC(=O)O)NC(=O)[C@H](CCC(=O)O)NC(=O)[C@H](CCC(=O)O)NC(=O)[C@H](CC(C)C)NC(=O)[C@H](Cc1ccc(O)cc1)NC(=O)[C@H](CCCCN)NC(=O)[C@H](CO)NC(=O)[C@H](CC(C)C)NC(=O)[C@H](CC(=O)O)NC(=O)[C@H](CO)NC(=O)[C@@H](NC(=O)[C@H](Cc1ccccc1)NC(=O)[C@@H](NC(=O)CNC(=O)[C@H](CCC(N)=O)NC(=O)[C@@H](CO)NC(=O)[C@@H](N)Cc1c[nH]cn1)[C@@H](C)O)[C@@H](C)O)C(C)C)C(=O)N[C@@H](C)C(=O)N[C@@H](Cc1c[nH]c2ccccc12)C(=O)N[C@@H](CC(C)C)C(=O)N[C@@H](CCCCN)C(=O)N[C@@H](CC(N)=O)C(=O)NCC(=O)NCC(=O)N1CCC[C@H]1C(=O)N[C@@H](CO)C(=O)N[C@@H](Cc1ccc(O)cc1)C(=O)N[C@@H](CO)C(=O)N[C@@H](CCSC)C(=O)N[C@@H](CCC(=O)O)C(=O)N[C@@H](Cc1c[nH]cn1)C(=O)N[C@@H](Cc1ccccc1)C(=O)N[C@@H](CCCNC(=N)N)C(=O)N[C@@H](Cc1c[nH]c2ccccc12)C(=O)NCC(=O)N[C@@H](CCCCN)C(=O)N1CCC[C@H]1C(=O)N[C@H](C(N)=O)C(C)C — EC50 (Gastric inhibitory polypeptide receptor (Rattus norvegicus, UniProt P43219); cAMP, agonist, FRET): 319 nM
O=C(CCCOc1cccc(Br)c1)N[C@H]1CCSC1=O — EC50 (sdiA): 32.9 nM
Cc1cc(C(=O)Nc2nc3cccc(C)c3n2[C@H]2CCCCN(C(=O)/C=C/CN(C)C)C2)ccn1 — multinucleated cells (Trypanosoma brucei; propidium iodide flow cytometry; bloodstream form; concentration not given, 72 h): 13.4%

A few entries again:
CCCCCC(=O)CC(=O)N[C@H]1CCOC1=O — EC50 (lasR; reporter gene, agonist; ΔmexAB-oprM pump mutant): 26000 nM
